Measurements gathered from unrelated publications.
Each line is one published result; not all experiments were run side by side. Numbers after ± are the reported error.
PIM3: Serine/threonine-protein kinase pim-3 (PIM3, Homo sapiens, UniProt Q86V86)
FLT4: Vascular endothelial growth factor receptor 3 (FLT4, Homo sapiens, UniProt P35916)
Chain of UniProt P35916 (whole entry, looked up): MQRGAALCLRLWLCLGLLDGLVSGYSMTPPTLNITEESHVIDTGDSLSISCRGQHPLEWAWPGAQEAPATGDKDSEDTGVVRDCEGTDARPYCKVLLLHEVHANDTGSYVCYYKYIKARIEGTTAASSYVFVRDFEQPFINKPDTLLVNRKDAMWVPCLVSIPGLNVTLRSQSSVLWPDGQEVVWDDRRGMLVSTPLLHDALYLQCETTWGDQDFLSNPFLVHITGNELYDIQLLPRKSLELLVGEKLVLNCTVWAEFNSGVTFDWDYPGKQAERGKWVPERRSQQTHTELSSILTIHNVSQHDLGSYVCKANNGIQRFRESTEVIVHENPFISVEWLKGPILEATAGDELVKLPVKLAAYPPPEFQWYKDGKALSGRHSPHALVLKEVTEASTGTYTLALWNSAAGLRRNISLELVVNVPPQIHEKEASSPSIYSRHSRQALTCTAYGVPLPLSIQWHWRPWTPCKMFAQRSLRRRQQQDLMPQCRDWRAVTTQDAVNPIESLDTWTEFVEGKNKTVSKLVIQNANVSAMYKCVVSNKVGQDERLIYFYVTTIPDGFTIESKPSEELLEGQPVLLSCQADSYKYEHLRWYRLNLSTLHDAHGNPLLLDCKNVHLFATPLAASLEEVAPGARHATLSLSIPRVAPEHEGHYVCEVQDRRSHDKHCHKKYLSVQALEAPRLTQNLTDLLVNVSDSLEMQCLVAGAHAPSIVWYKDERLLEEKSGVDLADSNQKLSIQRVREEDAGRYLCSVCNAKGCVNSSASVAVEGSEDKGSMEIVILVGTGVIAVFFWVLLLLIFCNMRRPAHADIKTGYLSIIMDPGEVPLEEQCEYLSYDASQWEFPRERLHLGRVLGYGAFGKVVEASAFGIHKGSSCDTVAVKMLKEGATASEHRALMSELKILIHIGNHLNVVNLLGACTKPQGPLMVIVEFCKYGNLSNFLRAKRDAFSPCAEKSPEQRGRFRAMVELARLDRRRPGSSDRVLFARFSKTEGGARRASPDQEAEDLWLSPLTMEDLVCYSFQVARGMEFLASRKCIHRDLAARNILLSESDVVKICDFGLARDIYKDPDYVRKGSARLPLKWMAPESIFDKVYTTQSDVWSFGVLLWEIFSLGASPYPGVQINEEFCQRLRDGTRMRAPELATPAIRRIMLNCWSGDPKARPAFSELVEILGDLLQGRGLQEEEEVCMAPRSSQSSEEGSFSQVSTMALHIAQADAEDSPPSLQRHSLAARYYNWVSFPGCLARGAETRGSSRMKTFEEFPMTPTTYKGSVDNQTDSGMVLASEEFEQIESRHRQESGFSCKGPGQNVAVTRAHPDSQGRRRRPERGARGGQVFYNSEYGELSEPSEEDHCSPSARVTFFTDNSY
TYK2: Non-receptor tyrosine-protein kinase TYK2 (TYK2, Homo sapiens, UniProt P29597)
Chain of UniProt P29597 (whole entry, looked up): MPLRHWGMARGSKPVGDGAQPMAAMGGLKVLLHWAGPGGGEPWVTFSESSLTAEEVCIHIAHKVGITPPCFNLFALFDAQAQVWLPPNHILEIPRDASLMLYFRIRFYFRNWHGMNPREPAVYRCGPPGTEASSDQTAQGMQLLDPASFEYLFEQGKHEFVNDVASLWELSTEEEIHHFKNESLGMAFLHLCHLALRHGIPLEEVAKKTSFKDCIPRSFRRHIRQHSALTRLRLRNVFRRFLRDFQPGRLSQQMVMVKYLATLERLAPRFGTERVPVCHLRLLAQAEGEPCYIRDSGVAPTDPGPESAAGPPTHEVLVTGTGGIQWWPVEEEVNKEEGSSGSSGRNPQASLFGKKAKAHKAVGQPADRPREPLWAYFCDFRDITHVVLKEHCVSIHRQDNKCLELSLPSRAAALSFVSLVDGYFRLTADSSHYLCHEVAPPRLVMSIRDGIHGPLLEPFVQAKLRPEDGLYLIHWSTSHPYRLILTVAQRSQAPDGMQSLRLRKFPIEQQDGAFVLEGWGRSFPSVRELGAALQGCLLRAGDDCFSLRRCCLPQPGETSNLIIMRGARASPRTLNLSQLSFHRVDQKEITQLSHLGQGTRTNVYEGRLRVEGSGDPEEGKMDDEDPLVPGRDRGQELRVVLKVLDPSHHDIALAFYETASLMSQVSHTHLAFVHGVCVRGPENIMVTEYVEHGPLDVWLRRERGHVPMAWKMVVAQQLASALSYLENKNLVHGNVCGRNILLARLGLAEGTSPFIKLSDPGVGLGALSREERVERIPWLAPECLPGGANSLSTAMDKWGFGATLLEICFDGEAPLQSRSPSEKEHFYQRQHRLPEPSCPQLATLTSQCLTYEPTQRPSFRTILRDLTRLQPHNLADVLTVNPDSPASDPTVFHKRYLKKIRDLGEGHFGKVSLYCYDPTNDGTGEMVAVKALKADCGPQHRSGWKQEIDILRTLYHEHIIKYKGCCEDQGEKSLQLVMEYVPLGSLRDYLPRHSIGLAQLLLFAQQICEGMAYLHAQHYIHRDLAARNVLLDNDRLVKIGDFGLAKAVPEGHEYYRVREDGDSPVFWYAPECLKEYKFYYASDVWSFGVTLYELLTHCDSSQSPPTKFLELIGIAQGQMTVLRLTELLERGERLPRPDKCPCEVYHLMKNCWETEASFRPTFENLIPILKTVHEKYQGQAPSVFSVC
Chain of UniProt P51817 (whole entry, looked up): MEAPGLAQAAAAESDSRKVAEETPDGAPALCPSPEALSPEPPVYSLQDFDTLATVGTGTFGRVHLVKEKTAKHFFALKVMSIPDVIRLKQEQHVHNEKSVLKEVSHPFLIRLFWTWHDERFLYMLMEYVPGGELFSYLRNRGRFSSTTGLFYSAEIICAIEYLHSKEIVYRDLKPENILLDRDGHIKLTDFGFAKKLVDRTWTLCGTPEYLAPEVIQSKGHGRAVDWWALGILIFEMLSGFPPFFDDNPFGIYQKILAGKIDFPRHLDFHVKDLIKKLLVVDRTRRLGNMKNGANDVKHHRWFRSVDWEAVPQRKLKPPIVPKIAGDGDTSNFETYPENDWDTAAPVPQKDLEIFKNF
Chain of UniProt Q05513 (whole entry, looked up): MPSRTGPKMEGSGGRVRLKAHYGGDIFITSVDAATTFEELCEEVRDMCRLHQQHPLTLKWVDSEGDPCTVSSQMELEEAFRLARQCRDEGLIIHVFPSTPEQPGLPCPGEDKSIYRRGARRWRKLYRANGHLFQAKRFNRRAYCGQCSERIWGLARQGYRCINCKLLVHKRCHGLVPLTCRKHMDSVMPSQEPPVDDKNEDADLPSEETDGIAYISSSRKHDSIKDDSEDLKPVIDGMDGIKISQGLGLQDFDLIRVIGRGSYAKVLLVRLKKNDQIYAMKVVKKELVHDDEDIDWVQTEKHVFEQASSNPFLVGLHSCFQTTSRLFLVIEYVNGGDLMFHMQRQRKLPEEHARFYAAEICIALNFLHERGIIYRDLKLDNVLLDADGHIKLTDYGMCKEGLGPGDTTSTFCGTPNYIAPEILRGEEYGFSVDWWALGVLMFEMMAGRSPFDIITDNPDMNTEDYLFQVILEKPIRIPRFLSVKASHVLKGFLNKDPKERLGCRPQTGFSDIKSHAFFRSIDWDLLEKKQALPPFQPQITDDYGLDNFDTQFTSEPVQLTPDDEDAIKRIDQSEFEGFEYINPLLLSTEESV
Chain of UniProt P49935 (whole entry, looked up): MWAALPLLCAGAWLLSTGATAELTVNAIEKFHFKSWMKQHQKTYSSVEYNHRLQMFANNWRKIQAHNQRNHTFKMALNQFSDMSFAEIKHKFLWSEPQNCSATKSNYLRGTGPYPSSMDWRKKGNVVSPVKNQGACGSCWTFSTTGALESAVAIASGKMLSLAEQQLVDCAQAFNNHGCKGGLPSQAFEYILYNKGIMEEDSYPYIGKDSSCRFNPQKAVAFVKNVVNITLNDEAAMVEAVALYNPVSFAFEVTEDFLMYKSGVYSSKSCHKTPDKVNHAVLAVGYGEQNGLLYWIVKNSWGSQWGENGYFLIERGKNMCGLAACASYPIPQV

For COc1cccc(OC)c1C(=O)N[C@@H]1C(=O)N2[C@@H]1SC(C)(C)[C@@H]2C(=O)O, the activity score was -3.6 (human iPSC-derived cardiomyocytes; MyBP-C/MYH ratio, plate-normalised SD score; concentration not given, primary screen; direction not given).
CC(C)C[C@H](NC(=O)C[C@H](O)[C@H](CC(C)C)NC(=O)[C@H](Cc1c[nH]cn1)NC(=O)CNC(=O)[C@@H](NC(=O)[C@H](C)NC(=O)[C@H](Cc1c[nH]c2ccccc12)NC(=O)[C@H](CCC(N)=O)NC(=O)[C@@H](Cc1ccccc1)NC(=O)COCCOCCNC(=O)CCC(C(=O)O)N1CCN(CC(=O)O)CCN(CC(=O)O)CCN(CC(=O)O)CC1)C(C)C)C(N)=O (some centres unmarked) [lutetium-177 labelled] has a tissue uptake of 2.8 ± 0.4 %ID (BALB/c nu/nu mice, carcass; 50 pmol, 1 h, added: PA 300 µg).
O=C(NC1CCC1)c1ccc2nc(-c3cccc(NS(=O)(=O)NCCN4CCCCC4)c3)cn2c1 has a remaining activity of 100% (cAMP-dependent protein kinase catalytic subunit PRKX (PRKX, Homo sapiens, UniProt P51817); enzyme activity; 10 µM).
O=C1NC(=O)/C(=C/c2ccc(-c3ccc(F)cc3O)o2)S1 gave a remaining activity of 7% (PIM3; enzyme activity; 10 µM).
Cc1cc(Nc2cc(N3CCN(C)CC3)nc(Sc3ccc(NC(=O)C4CC4)cc3)n2)[nH]n1 has a remaining activity of 104% (PIM3; kinase activity, KinaseProfiler; 0.03 µM, species human; baseline: control).
COc1cc(Nc2ncc3c(n2)-c2ccc(Cl)cc2C(c2c(F)cccc2OC)=NC3)ccc1C(=O)O gave a remaining activity of 60% (ERBB4; kinase activity; 1 µM).
COc1cc(F)ccc1-c1ncnc(Nc2cccc(C[S@](C)(=N)=O)c2)n1 has a remaining activity of 30% (FLT4; kinase activity; 10 µM, added: 10 µM ATP).
With CC(C)C[C@H](NC(=O)C[C@H](O)[C@H](CC(C)C)NC(=O)[C@H](Cc1c[nH]cn1)NC(=O)CNC(=O)[C@@H](NC(=O)[C@H](C)NC(=O)[C@H](Cc1c[nH]c2ccccc12)NC(=O)[C@H](CCC(N)=O)NC(=O)[C@@H](Cc1ccccc1)NC(=O)COCCOCCNC(=O)CCC(C(=O)O)N1CCN(CC(=O)O)CCN(CC(=O)O)CC1)C(C)C)C(N)=O (some centres unmarked) [lutetium-177 labelled] the tissue uptake was 0.009 ± 0.001 %ID/g (female BALB/c nu/nu mice, muscle; intravenous, 50 pmol, 24 h).
NC(=O)c1ncn([C@@H]2O[C@H](CO[P@@](=O)(O)O[P@](=O)(O)OP(=O)(O)O)[C@@H](O)[C@H]2O)n1 gave a remaining activity of 71.5% (Non-structural polyprotein pORF1, RNA-dependent RNA polymerase (Hepatitis E virus genotype 1, UniProt P33424); polymerase activity, inhibitor, colorimetric; 28 µM; baseline: untreated).
The remaining activity of C=CC(=O)N1CCC[C@@H](n2nc(-c3ccc(Oc4ccccc4)cc3)c3c(N)ncnc32)C1 is reported as 28.6% (TYK2; 10 µM).
With O=C(OCC(O)CO)c1ccccc1Nc1ccnc2cc(Cl)ccc12 (centres unmarked) the activity score was 3.9 (human iPSC-derived cardiomyocytes; MyBP-C/MYH ratio, plate-normalised SD score; concentration not given, primary screen; direction not given).
The remaining activity of O=C(O)c1ccc(Nc2ncc3c(n2)-c2ccc(Cl)cc2C(c2c(F)cccc2F)=NC3)cc1 is reported as 110% (FAK(h); kinase activity; 1 µM).
For COc1cc(-c2cncc3c2CN(C)Cc2cc(N4CCNCC4)ccc2-3)cc(OC)c1OC, the remaining activity was 103% (TYK2; kinase activity; 1 µM, human enzyme, added: ATP 10 µM; baseline: DMSO control).
c1cnc2ccc(Nc3nc(NC4CC4)c4nc[nH]c4n3)cc2c1 gave a remaining activity of 75% (FLT4; kinase activity, inhibitor, SelectScreen kinase profiling; 1 µM; baseline: control).
Cn1cc(-c2ccc(-c3cncc(Cl)c3N3CCC4(CCNC4=O)CC3)cc2)cn1: “log2 fold change” -2.7 (COLO 205; gene expression, microarray, item: HIST1H4J mRNA; concentration not given, 6 h; baseline: untreated cells).
The remaining activity of Cc1cccc(C)c1C(=O)OCC(=O)[C@H](CCCCN)NC(=O)[C@H](CCCNC(=N)N)NC(=O)OCc1ccccc1 is reported as 95% (Pro-cathepsin H (Ctsh, Mus musculus, UniProt P49935); inhibitor; 0.1 µM, added: AMC fluorogenic substrate; baseline: untreated).
With CNc1ncc2c(/C=C/C(=O)N3CCC(OC)CC3)nn(Cc3cccc(C(F)(F)F)c3)c2n1 the remaining activity was 100% (Protein kinase C zeta type (PRKCZ, Homo sapiens, UniProt Q05513); kinase activity, inhibitor; 1 µM; baseline: untreated control).

Some of these lines once more:
The remaining activity of C=CC(=O)N1CCC[C@@H](n2nc(-c3ccc(Oc4ccccc4)cc3)c3c(N)ncnc32)C1 is reported as 28.6% (TYK2; 10 µM).
